{"data": "Measurements from different studies", "note": "Every numbered part comes from another study and shows a few of its results, in no order."}
{"data": "Set 1", "target": "RNA binding protein fox-1 homolog 2, RRM domain, GST-SBP tag (RBFOX2, Homo sapiens, UniProt O43251-10, residues 100-194)", "technique": "RNA Bind-n-Seq", "form": "RNA", "medium": "in vitro", "tested at": "365 nM", "setting": "natural RNA segment, single round, ends assumed", "relative to": "no-protein control", "reading": "higher = stronger binding", "shared flanks, not repeated": "GGGAGUUCUACAGUCCGACGAUC … UGGAAUUCUCGGGUGCCAA", "Construct (chain)": "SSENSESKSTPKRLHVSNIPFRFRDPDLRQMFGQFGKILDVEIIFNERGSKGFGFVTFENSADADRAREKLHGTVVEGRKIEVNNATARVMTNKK"}
{"Strand": "AAGAUCAUGGCAGGCAGCAAGUGAGCCCCAGCUGGACUCAUGGAUGUGCACCCUUUGCUCCCUGCUCUUUCUGCCUCUGGGCUCAUGUAUCUGCGCAGCUCUGGUACCCU", "RBNS enrichment (R)": 0.403}
{"Strand": "GCCCCUCUGUACCAUCCCCUCCCCUCCGCACCACUGACCUCUUGUCUCCUGUUGUUUCUGCCACAGGGACUUCCUUGGUCCCUUCAGGGAAGCCCUCAACUCAUCUCUGA", "RBNS enrichment (R)": 0.459}
{"Strand": "AAUGGCUCGAAACACUUCUCAAAAGGAUAUACGUAUUGACCCCAACAAUAAAUGUUUGUGGCUAGUGCUUGUUUUUUGCUAUGUUGAUUCAGUGAAUGACCUAGAAGUCA", "RBNS enrichment (R)": 0.471}
{"Strand": "AAAUGAAUAUUUGAUCUCUGAUUAAUUUUUGAGACUUCUAAAUCUCUUCUUGUUUUAAGUUUCUUGGACUUCUGACAAACUUCCCUGGAGAAGUGUUCAUUUUUGUUUUC", "RBNS enrichment (R)": 0.896}
{"Strand": "GGGAGACCAAAAGCUCAUACUCCUAACCCUAGGAAAGGGUUUUAGGGAGCCAAGGACCAGAGAGCCACAGGACUAUCCAGAAAGAAACCCAUCAGGGGUGUAGCACAGGG", "RBNS enrichment (R)": 0.383}
{"Strand": "UGUAGAACAUCCGCCAUGCCGUCCCAGCUGGCGGAGGGGGAGCUGCCCACCUAGCUGGGUUUGGACCUGGAGUGCAGUGGCGUGAACCCUGGUCAGCACAGUCCCCAGCG", "RBNS enrichment (R)": 0.372}
{"Strand": "GGAGAGGUAUUGUGGAUUCACACGGCAGUCACUUGUUGCCCUCAUGCCCUGUGGUGUUUGGCACGAGGCUCCCAGCCACUUAAACCUGUUCACUUUCCAAAGAAUUCAUC", "RBNS enrichment (R)": 0.325}
{"Strand": "GAUACAUUAGUACCUGAUUUCAUAUCUUACAUAUUUAUUUGAGCUGAACAUUAGUUUGUAGUGUAACUAUUAGUAAAAAUAGAGAAACACAGCAUACUGUUCAUUAAUAG", "RBNS enrichment (R)": 0.345}
{"Strand": "CUGAGUGUUCAAGUACAGUUUUACAGUGGCUAAGGUUGUCUCUUGAUCUUUUUUCUCCGUUGUGUGAUCACAGAUGCUAUUUCUGUUUUAUUGGUGAUUAUACGAGACUU", "RBNS enrichment (R)": 0.294}
{"Strand": "CAGCCCUCUAAGGGUUUUCUCCUCCGGCAAUGGAUAAGGAGCCCAGCUAUGAAAGCUUUGCUUACUGGGAUGGAUGGGGGCAGACAAGAGGACAGUAGGGAAUCUGCCGA", "RBNS enrichment (R)": 0.316}
{"Strand": "CCCCGGCCCCCCGCGCUCGCCCAGCAGGAGAGACUGAGCAGCCGCCAGCUGGGAGCACUGGUGUGAACUCACCCUGGGAGCCAGUCCUCCACUCGACCCAGAAUGGAGCC", "RBNS enrichment (R)": 0.316}
{"Strand": "CCUCCCGGAAUCCGAGAUAGGGUGGCACAUCUGUCCUGACAGACGAGGAGUGUAACUGAACCAGGAAUAUUUCCUCCAUUCCUGCUCUCCCACUGCACACAGGGUGGUGG", "RBNS enrichment (R)": 0.358}
{"data": "Set 2", "target": "Histone acetyltransferase KAT6A, both winged helices, GST fusion (KAT6A, Homo sapiens, UniProt Q92794, residues 1-181)", "technique": "protein binding microarray", "form": "double-stranded DNA, one strand shown", "medium": "in vitro", "tested at": "not given", "setting": "8-mer, flanks averaged, mean of 2 arrays, mostly near background", "relative to": "not given", "reading": "higher = stronger binding", "Residues (chain)": "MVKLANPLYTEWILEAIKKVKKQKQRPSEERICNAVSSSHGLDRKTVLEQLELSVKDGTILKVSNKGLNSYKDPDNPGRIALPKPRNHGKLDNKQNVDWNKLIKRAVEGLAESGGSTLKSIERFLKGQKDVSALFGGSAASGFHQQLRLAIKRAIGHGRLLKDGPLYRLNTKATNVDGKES"}
{"Strand": "CTCTAGGA", "E-score": -0.169}
{"Strand": "ATTTTGGA", "E-score": -0.134}
{"Strand": "AACCACCT", "E-score": -0.173}
{"Strand": "GCCAGTGA", "E-score": -0.108}
{"Strand": "GCAGGGGC", "E-score": 0.112}
{"Strand": "ACACGACT", "E-score": 0.0327}
{"Strand": "AAAAGCCA", "E-score": 0.0184}
{"Strand": "TCGTGCCA", "E-score": -0.0766}
{"Strand": "GCCACTCA", "E-score": -0.0306}
{"Strand": "CTGAAAGC", "E-score": -0.0488}
{"Strand": "GCGACCGA", "E-score": 0.0998}
{"Strand": "ATGTCCAA", "E-score": 0.0523}
{"Strand": "CGCACTTC", "E-score": 0.121}
{"Strand": "AGATTCTC", "E-score": -0.109}
{"Strand": "TGTGTGAA", "E-score": -0.073}
{"Strand": "ACAGTGAG", "E-score": -0.0864}
{"Strand": "GACCATAC", "E-score": 0.0257}
{"Strand": "AAGCGAAA", "E-score": -0.132}
{"Strand": "CTTCTAAC", "E-score": -0.159}
{"Strand": "CCCTTGCC", "E-score": -0.0744}
{"Strand": "CGGCAAAA", "E-score": 0.203}
{"Strand": "CAAGGAAC", "E-score": 0.0331}
{"Strand": "ACGTGATC", "E-score": 0.0415}
{"Strand": "AGATTATC", "E-score": -0.0688}
{"Strand": "CATTGTCC", "E-score": -0.0385}
{"data": "Set 3", "target": "RING finger protein unkempt homolog, zinc fingers 1-6, GST-SBP tag (UNK, Homo sapiens, UniProt Q9C0B0, residues 30-357)", "technique": "RNA Bind-n-Seq", "form": "RNA", "medium": "in vitro", "tested at": "not given", "setting": "RNA with constant flanks, human and mouse sites, ends assumed", "relative to": "input RNA pool", "reading": "higher = stronger binding", "shared flanks, not repeated": "GGGAGUUCUACAGUCCGACGAUC … CAACAGAGGAUUGAGCAUCA", "UniProt Q9C0B0, sequence (30-357, looked up)": "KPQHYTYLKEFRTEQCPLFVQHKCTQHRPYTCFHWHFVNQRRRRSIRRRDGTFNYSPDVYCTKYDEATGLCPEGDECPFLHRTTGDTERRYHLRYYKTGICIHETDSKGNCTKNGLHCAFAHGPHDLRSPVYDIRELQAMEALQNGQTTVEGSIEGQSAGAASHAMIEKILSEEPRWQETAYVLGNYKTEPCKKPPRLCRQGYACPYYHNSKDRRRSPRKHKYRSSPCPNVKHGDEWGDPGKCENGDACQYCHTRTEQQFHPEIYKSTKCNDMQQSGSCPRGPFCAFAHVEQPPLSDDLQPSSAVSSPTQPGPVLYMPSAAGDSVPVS"}
{"Strand": "UGGACUUUGAGUUUGCUGCAUGGCAGAUGCUCUACCUGUUUACCUCUCCUCAGAGGGUUUAUAGAAACUUUCACUACCGGAAGCAAACAAAGGACCAGUGGGCCAGAGAUGACCCUGCCU", "bound/input enrichment": "0.121 ratio"}
{"Strand": "AGUUAUACCCACCAUACUGGUUCUUCACUUUUUGGUCAGCCCUUUCUUAUGGCUGUACCACGAAACAAUACUGAAGACAAACUUUAUAAUCUCCUGCUCUUGAGAAUGUGCCGAUAUGUC", "bound/input enrichment": "0.37 ratio"}
{"Strand": "UUUUGGAAACAGUUCAGGCUUUGGGGUGAGCCUGUCAAUCUUCGUGAACAACAUGAUGCUUUAGAGUUCUUUAAUUCUUUGGUGGAUAGUUUAGAUGAAGCUUUAAAAGCCUUAGGGCAU", "bound/input enrichment": "0.811 ratio"}
{"Strand": "CACGGGGGACACGGAUGGCUAGUGGGGCGCAGGGGCCUUUUGGGUUGAGACCGCGACGGUCGCGGCCACUGUUGAGGCGGAGACUUCGGAUCGCUGCCGCCUCCACCACCCCCAGUGUCC", "bound/input enrichment": "0.254 ratio"}
{"Strand": "UACAUGACGAUCAGCGAUGAGUGGGACAUUCCAGAGAAGCAGCCUUUCAAAGACCUGGGCAAUUUGCGUUACUGGCUGGAAGAGGCAGAGUGUAGAGAUCAGUACAGUGUGAUUUUUGAG", "bound/input enrichment": "0.264 ratio"}
{"Strand": "CACUCCGUCUCAAUAUGUCUCAAGAUGGCGGCCAAUGUGGGAUCGAUGUUUCAAUAUUGGAAGCGCUUUGAUUUACAGCAGCUGCAGAGAGAACUUGAUGCCACCGCAACAGUAUUGGCA", "bound/input enrichment": "0.169 ratio"}
{"Strand": "CGACACGCACAGGGAGGUAUGUGGUAUGGGGUGGACAUCAACAAUGAGAACAUCGCCGACAACUUCCAGGCAUUUGUGUGGGAGCCAGCCAUGGUGCGCAUCAACGCUCUGACAGCAGCU", "bound/input enrichment": "0.2 ratio"}
{"Strand": "CAGGGUCUUUAUUCCUCAUCUGCCGGAAGUGGGAAAUGCAUAGUAGAGGUUACAAUGGACAGAAAUUGUCUCGAGGUUCUUCCAACUAAAAUGUCUUAUGCUGCCAAUCUAAAAAAUGUA", "bound/input enrichment": "0.238 ratio"}
{"Strand": "GCUCUUGUGGAGGUACAUUUCCUAAGCCGGAACACUCAAGCUUUUUUCAGGGUGUUUGGCUCUUGCAGCAAAACAAUUGAGAUGCUAACAGGGAGGAUUACAGUGUUUACAGAACAACCU", "bound/input enrichment": "0.222 ratio"}
{"Strand": "GCAAAUAUGACAAGGGAAAAAAUUGCAGCACAGGUUGAUUAUCAUUUACCUGAAAUGCUUGAGACACAAUGUACCUCAGAUUACAAAUUGUAUAUAUAUAUUUUUUUUAUUUUGAAAUAU", "bound/input enrichment": "2.08 ratio"}
{"Strand": "UCUGAUAAACUUAACAAUGGGGGAUCUGAUAGCCCUUGUGACUUGAAAUCACCUAAUGCAUUUAGUGAAAAUCGCCAGGACUAUUUUGAUUAUGAGUCAACCAAUCCAUUUACAGCAAAA", "bound/input enrichment": "0.259 ratio"}
{"data": "Set 4", "target": "Interferon regulatory factor 3, full length, phosphomimetic (IRF3, Homo sapiens, UniProt Q14653, residues 1-427, S386D/S396D/S398D/S402D/T404D/S405D)", "technique": "protein-binding microarray", "form": "double-stranded DNA, one strand shown", "medium": "in vitro", "tested at": "2540 nM top", "setting": "60-bp whole probe", "with": "salmon DNA 0.4 mg/ml", "relative to": "random background probes", "reading": "higher = stronger binding", "shared flanks, not repeated": "GCCTAGCAC … GTCTTGATTCGCTTGACGCTGCTG", "Construct (chain)": "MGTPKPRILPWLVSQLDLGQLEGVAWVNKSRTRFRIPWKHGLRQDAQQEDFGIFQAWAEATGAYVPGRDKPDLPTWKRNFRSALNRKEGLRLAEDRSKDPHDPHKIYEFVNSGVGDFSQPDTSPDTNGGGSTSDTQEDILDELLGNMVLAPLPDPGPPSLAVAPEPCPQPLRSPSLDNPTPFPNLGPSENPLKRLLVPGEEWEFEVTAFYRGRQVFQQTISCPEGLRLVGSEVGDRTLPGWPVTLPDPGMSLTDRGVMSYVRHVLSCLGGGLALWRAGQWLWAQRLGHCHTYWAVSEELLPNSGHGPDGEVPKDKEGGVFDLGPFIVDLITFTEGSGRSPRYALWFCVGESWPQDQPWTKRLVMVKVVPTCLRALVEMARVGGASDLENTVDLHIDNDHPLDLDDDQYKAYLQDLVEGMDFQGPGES"}
{"Strand": "GACGGACTGGACTTGCGGGACGTGCTA", "fitted relative affinity": "-0.502 z-score"}
{"Strand": "TCAAACTTGTGTTTGTCACTGTGCTAG", "fitted relative affinity": "-0.262 z-score"}
{"Strand": "GGCGGTCTCCTTATCCTGACGTGCTAG", "fitted relative affinity": "2.82 z-score"}
{"Strand": "CCGCATATCGGGGTGCGCCCGGTGCTA", "fitted relative affinity": "-0.445 z-score"}
{"Strand": "CCAGACCCTGATCCATGCATGTGCTAG", "fitted relative affinity": "-0.157 z-score"}
{"Strand": "TTAGGACTGGGGATTCGGTTAGTGCTA", "fitted relative affinity": "-0.406 z-score"}
{"Strand": "GACGAACTCGGGTTTCGAGACGTGCTA", "fitted relative affinity": "0.594 z-score"}
{"Strand": "TTTCCTTTGCCTCTGAGGCTGTGCTAG", "fitted relative affinity": "6.4 z-score"}
{"Strand": "TCTGTTTCTGATATGGTATGGTGCTAG", "fitted relative affinity": "4.11 z-score"}
{"Strand": "GGTCTTTCCACTTTCTTTTGGTGCTAG", "fitted relative affinity": "2.08 z-score"}
{"Strand": "TTGGGTTTCGGGTATCGGTTAGTGCTA", "fitted relative affinity": "3.42 z-score"}
{"Strand": "GACGGTATCCTTCTCCAGACGTGCTAG", "fitted relative affinity": "6.75 z-score"}
{"Strand": "TTAGAACTGGGGACTGGGTTAGTGCTA", "fitted relative affinity": "-0.966 z-score"}
{"Strand": "TCATTTTTTTACTTCGGACTGTGCTAG", "fitted relative affinity": "1.06 z-score"}
{"Strand": "GACGGTATCCTACTACTGACGTGCTAG", "fitted relative affinity": "3.4 z-score"}
{"Strand": "TATGGTATTTTTTTGTAATCGTGCTAG", "fitted relative affinity": "0.268 z-score"}
{"Strand": "TTAGGTTTCCTGTCCCTTTAGTGCTAG", "fitted relative affinity": "3.27 z-score"}
{"Strand": "GAACATATTTGTTTCCATTTGTGCTAG", "fitted relative affinity": "5.47 z-score"}
